# Measurements collected from several papers.
# Parts stem from different laboratories: compare values within a part only. “And” joins repeats or separate records; there may be more than shown. Positions count from the first letter of the parent shown.
# Sequence of UniProt Q9H2X6 (whole entry, looked up): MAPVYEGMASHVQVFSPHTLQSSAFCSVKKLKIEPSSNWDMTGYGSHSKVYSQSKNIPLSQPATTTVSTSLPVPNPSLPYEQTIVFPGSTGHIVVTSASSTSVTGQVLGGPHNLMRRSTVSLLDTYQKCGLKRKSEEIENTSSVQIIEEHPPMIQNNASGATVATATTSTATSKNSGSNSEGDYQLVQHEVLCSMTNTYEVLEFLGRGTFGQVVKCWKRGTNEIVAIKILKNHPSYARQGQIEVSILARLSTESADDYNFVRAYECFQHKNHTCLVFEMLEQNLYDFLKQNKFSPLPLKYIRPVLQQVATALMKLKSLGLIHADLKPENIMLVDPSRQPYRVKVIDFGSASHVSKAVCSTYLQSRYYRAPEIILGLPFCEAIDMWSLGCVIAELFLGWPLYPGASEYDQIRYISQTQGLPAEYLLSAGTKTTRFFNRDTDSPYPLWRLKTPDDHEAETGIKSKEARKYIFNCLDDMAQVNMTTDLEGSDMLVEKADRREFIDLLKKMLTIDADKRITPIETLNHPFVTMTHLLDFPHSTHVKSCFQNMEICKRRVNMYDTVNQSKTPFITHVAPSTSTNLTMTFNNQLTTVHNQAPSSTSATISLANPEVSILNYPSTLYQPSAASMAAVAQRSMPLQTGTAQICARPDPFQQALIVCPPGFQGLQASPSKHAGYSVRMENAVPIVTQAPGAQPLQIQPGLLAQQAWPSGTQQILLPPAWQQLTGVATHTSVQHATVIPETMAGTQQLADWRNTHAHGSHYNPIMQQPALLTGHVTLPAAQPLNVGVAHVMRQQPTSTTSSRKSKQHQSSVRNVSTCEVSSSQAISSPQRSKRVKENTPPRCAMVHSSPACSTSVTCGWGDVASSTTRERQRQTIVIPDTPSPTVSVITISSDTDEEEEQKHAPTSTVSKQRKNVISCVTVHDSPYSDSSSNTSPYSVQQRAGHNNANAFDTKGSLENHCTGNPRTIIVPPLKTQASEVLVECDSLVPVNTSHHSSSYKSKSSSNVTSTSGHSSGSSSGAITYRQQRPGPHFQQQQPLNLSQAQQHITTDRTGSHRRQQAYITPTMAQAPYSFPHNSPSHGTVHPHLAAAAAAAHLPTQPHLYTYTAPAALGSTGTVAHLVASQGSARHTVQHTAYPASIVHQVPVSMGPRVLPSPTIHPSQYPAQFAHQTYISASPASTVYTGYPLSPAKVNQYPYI
# Sequence of UniProt O15530 (whole entry, looked up): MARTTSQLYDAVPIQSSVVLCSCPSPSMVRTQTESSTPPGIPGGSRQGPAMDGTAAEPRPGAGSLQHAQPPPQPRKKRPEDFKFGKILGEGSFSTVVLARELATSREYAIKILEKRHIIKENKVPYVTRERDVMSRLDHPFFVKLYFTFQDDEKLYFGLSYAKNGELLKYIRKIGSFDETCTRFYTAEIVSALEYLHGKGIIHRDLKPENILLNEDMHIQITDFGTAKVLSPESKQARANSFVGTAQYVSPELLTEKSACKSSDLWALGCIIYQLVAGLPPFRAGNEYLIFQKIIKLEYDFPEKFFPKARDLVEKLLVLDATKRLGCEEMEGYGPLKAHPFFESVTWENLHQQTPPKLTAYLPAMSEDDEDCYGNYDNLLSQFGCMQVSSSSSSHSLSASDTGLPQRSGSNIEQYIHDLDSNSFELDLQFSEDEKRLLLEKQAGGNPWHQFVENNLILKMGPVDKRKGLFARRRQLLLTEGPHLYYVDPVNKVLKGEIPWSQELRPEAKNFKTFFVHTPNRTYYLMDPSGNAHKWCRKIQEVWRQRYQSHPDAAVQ
# Sequence of UniProt O75582 (whole entry, looked up): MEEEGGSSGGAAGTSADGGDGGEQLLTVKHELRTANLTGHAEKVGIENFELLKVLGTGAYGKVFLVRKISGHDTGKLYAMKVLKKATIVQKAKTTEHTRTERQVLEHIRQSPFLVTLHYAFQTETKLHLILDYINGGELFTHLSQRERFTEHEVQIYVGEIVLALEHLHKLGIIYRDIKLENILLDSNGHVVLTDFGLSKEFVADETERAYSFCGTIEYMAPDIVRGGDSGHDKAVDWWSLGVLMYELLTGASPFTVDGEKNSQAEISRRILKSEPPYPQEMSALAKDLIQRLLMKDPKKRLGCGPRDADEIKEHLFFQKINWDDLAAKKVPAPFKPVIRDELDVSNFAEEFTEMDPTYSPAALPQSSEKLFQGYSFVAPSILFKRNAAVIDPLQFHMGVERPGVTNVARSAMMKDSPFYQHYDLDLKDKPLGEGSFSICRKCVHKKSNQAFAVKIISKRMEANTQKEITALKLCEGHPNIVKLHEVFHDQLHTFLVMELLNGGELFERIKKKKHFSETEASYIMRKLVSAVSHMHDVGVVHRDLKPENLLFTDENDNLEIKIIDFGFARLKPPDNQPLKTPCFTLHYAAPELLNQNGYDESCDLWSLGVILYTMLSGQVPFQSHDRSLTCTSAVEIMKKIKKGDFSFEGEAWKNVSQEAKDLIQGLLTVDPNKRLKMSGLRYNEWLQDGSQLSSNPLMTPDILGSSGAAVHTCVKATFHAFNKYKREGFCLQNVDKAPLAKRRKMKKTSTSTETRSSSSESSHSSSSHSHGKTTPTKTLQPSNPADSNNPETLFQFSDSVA

# Sample 1
# Target: CCND1, cyclin fold, Cln2 fusion (human)
# Technique: yeast growth competition, sequencing
# Medium: yeast
# Setting: weak parent motif
# Relative to: not given
# Direction: higher = stronger binding
# Parent: viral docking peptide; KKVKRRLFETREL; partner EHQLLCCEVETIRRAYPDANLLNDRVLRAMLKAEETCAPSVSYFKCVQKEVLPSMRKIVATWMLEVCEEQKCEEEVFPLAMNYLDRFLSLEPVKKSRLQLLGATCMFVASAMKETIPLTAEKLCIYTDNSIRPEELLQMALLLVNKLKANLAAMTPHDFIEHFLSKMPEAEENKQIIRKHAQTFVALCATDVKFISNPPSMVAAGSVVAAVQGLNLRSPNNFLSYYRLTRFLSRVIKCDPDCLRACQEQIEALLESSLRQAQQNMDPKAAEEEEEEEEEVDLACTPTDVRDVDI
Variant,normalised enrichment score
KKVKKRLLETREL [R5K F8L],0.08
KKVKKRLFETREL [R5K],0.301
KAVKRRLFETREL [K2A],0.342
KKVKARAFETREL [R5A L7A],0.105
KKAKRRLFETREL [V3A],0.298
KKVKRRLFETAEL [R11A],0.286
KKVKRRLAETREL [F8A],-0.369
KKVKRALFETREL [R6A],0.309

# Sample 2
# Structure (SMILES): CC(C)S(=O)(=O)c1cc2c(Nc3ccc4sc(C5CCCC5)nc4c3)ccnc2cc1OCCO
cell line,assay,conditions,viability
L929 RIPK3 knockout,,"100 µM, added: zVAD",17.7% and 11.6% and 11.5%
L929 RIPK3 knockout,,3.125 µM,91.9% and 96.2% and 96.7% and 96% and 90.8%
L929 RIPK3 knockout,,50 µM,56.4% and 53.9% and 53.8% and 55.1%
L929 RIPK3 knockout,,"3.125 µM, added: zVAD",94.7% and 92.9% and 88.3%
L929,CCK-8,25 µM,57.6% and 77.2% and 56.6% and 55.7%
L929,CCK-8,"0.781 µM, added: zVAD",90.6% and 87.1% and 93.3% and 87.9% and 93.5%
L929,CCK-8,0.781 µM,102% and 95.9% and 96% and 98.2% and 99.7%
L929 RIPK3 knockout,,"12.5 µM, added: zVAD",78.2% and 87.2% and 80.7% and 90.9%
L929 RIPK3 knockout,,"1.563 µM, added: zVAD",96.2% and 97.9% and 90.2% and 92.4% and 92%
L929,CCK-8,12.5 µM,78.2% and 77.3% and 75.7% and 91.9% and 89.9%
L929,CCK-8,100 µM,13.4% and 15% and 13.2% and 13.6% and 15.6%
L929,CCK-8,"12.5 µM, added: zVAD",105% and 90.6% and 79.3% and 76.6%

# Sample 3
# SMILES: COc1ccc2c(c[n+](C)c3c4cc5c(cc4ccc23)OCO5)c1OC
# Effect on: enzyme activity
# Mode: inhibitor
# Concentration: 0.5 µM
# Relative to: control
target,remaining activity
"3-phosphoinositide-dependent protein kinase 1 (PDPK1, Homo sapiens, UniProt O15530)",98.2%
"Homeodomain-interacting protein kinase 2 (HIPK2, Homo sapiens, UniProt Q9H2X6)",92.6%
"Ribosomal protein S6 kinase alpha-5 (RPS6KA5, Homo sapiens, UniProt O75582)",83.3%

# Sample 4
# Target: Muscarinic acetylcholine receptor M1 (CHRM1, Homo sapiens, UniProt P11229)
# Sequence of UniProt P11229 (whole entry, looked up): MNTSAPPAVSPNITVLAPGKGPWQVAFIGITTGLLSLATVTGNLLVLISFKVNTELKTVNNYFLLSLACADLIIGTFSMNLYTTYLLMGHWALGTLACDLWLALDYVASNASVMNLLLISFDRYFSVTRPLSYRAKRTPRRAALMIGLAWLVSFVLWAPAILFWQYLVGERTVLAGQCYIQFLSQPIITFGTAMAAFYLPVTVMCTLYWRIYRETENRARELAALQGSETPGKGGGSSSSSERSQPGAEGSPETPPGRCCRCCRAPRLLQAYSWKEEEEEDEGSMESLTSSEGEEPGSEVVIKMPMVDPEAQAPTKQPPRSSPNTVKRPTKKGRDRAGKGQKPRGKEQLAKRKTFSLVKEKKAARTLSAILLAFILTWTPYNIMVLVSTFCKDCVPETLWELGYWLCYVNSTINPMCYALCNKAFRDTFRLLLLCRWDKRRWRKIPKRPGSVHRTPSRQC
# Effect on: ligand displacement
# Concentration: 10 µM
SMILES,inhibition [%]
O=C1NC(c2ccccn2)Sc2ccccc21 (stereo not drawn),-11.6
CC(=O)N1CCC(c2ccc(C(=O)NC3=NCCN3)cc2C(F)(F)F)CC1,-7.86
O=c1nc(-c2ccccn2)sc2ccccc12,-5.27
CN(C)C(=O)c1sc2nc(N3CCC(S(C)(=O)=O)CC3)cc(C(F)(F)F)c2c1N,0.25

# Repeated from above (sample 2):
cell line,assay,conditions,viability
L929,CCK-8,12.5 µM,78.2% and 77.3% and 75.7% and 91.9% and 89.9%
L929,CCK-8,100 µM,13.4% and 15% and 13.2% and 13.6% and 15.6%
